Measurements collected from several papers.
± gives the spread as reported.
Target: Cathepsin B (CTSB, Homo sapiens, UniProt P07858)

| SMILES | test | setting | scale | measurement | value |
| --- | --- | --- | --- | --- | --- |
| C[C@H](NC(=O)[C@H](CC(=O)NCC(C)(C)C)NC(=O)C(=O)c1c[nH]c2ccccc12)C(=O)NCc1ccc(F)cc1F | enzyme activity, inhibitor | 100 µM | – | inhibition | 17% |
| CC(C)(C)OC(=O)NC(Cc1cccc(Cl)c1)C(=O)NCC=CS(=O)(=O)c1ccccc1 (centres unmarked) | inhibitor | added: Z-Arg-Arg-pNA | – | kinact/Ki | 580 M⁻¹ s⁻¹ |
| COc1cccc(OC)c1-c1cc(C(=O)NC2(C(=O)O)C3CC4CC(C3)CC2C4)nn1-c1ccc(C(=O)N(C)CCOCCOCCN(C)C(=O)[C@H](CCCCNC(=O)[C@H](CC(C)C)NC(=O)C2OC2C(=O)O)NC(=O)CN2CCN(CC(=O)[O-])CCN(CC(=O)[O-])CCN(CC(=O)[O-])CC2)cc1C(C)C.[Lu+3] (mixture of isomers) | enzyme activity, inhibitor | pH 6.0, 37 °C, added: Z-Arg-Arg-AMC 800 µM | – | kinact/KI | 32000 ± 7000 M⁻¹ s⁻¹ |
| C[C@](C(=O)NC1CCOCC1)(c1cncnc1)N(C(=O)[C@H](F)Cl)c1ccc(OC(F)(F)Cl)cc1 | enzyme activity, inhibitor | 10 µM | – | remaining activity | 107% |
| Cc1ccc(CNC(=O)C(CCc2ccccc2)NC(=O)C(NC(=O)c2ccc(OCc3ccc(C(C)(C)C)cc3)cc2)C(C)O)cc1 (centres unmarked) | enzyme activity, inhibitor | 100 µM | – | inhibition | 20% |
| Cc1ccc(C[C@H](NC(=O)CN2CCCc3cc4cc(C(=O)NCCNC(=O)CCCC[C@@H]5SC[C@@H]6NC(=O)N[C@@H]65)c(=O)oc4cc32)C(=O)NC/C=C/S(=O)(=O)c2ccccc2)cc1 | inhibitor | 5 µM, 60 min, added: Z-Arg-Arg-pNA | relative to: uninhibited control | remaining activity | 38% |
| N=C(N)NCCCC(NC(=O)C(CC(=O)NO)Cc1ccc2ccccc2c1)C(=O)NC(Cc1c[nH]c2ccccc12)C(=O)NC(CCC(=O)O)C(N)=O (centres unmarked) | – | 1 µM | – | inhibition | 4% |
| COc1cccc(OC)c1-c1cc(C(=O)NC2(C(=O)O)C3CC4CC(C3)CC2C4)nn1-c1ccc(C(=O)NCCNC(=O)[C@H](CCCCNC(=O)[C@H](CC(C)C)NC(=O)C2OC2C(=O)O)NC(=O)CN2CCN(CC(=O)O)CCN(CC(=O)O)CCN(CC(=O)O)CC2)cc1C(C)C (mixture of isomers) | enzyme activity, inhibitor, fluorescence | pH 6 | – | kinact/KI | 18000 M⁻¹ s⁻¹ |
| COC(=O)CN1CCCc2cc3cc(C(=O)NC(Cc4cccc(Cl)c4)C(=O)NCC=CS(=O)(=O)c4ccccc4)c(=O)oc3cc21 (centres unmarked) | inhibitor | 5 µM, 60 min, added: Z-Arg-Arg-pNA | relative to: uninhibited control | remaining activity | 32% |
| O=C(NCCCCc1ccccc1)n1c(=O)oc2cc(-c3ccc(F)cc3)ccc21 | enzyme activity, inhibitor | 10 µM | – | inhibition | 9.9% |
| Cc1ccc(CNC(=O)[C@H](CCc2ccccc2)NC(=O)[C@H](CC(=O)NCC(C)(C)C)NC(=O)CCc2cccc(F)c2)cc1 | enzyme activity, inhibitor | 100 µM | – | inhibition | -13% |
| CC(=O)OCC1=C2C(C)=CC(C)=[N+]2[B-](C)(C)n2c(C)cc(C)c21 | – | – | relative to: light over dark | kinact/KI ratio | 0.83 |
| C=CCNC(=O)[C@H](CCc1ccccc1)NC(=O)[C@H](CC(=O)NCC(C)(C)C)NC(=O)CCc1ccccc1 | enzyme activity, inhibitor | 100 µM | – | inhibition | -6% |
| COC(=O)c1cc2cc3c(cc2oc1=O)N(CC(=O)NC(Cc1cccc(Cl)c1)C(=O)NCC=CS(=O)(=O)c1ccccc1)CCC3 (centres unmarked) | inhibitor | added: Z-Arg-Arg-pNA | – | kinact/Ki | 881 M⁻¹ s⁻¹ |

For quick reference, copied from above:
| SMILES | test | setting | scale | measurement | value |
| --- | --- | --- | --- | --- | --- |
| O=C(NCCCCc1ccccc1)n1c(=O)oc2cc(-c3ccc(F)cc3)ccc21 | enzyme activity, inhibitor | 10 µM | – | inhibition | 9.9% |
| Cc1ccc(CNC(=O)[C@H](CCc2ccccc2)NC(=O)[C@H](CC(=O)NCC(C)(C)C)NC(=O)CCc2cccc(F)c2)cc1 | enzyme activity, inhibitor | 100 µM | – | inhibition | -13% |
